Results from different studies.
± gives the spread as reported.
Chain of UniProt Q13163 (whole entry, looked up): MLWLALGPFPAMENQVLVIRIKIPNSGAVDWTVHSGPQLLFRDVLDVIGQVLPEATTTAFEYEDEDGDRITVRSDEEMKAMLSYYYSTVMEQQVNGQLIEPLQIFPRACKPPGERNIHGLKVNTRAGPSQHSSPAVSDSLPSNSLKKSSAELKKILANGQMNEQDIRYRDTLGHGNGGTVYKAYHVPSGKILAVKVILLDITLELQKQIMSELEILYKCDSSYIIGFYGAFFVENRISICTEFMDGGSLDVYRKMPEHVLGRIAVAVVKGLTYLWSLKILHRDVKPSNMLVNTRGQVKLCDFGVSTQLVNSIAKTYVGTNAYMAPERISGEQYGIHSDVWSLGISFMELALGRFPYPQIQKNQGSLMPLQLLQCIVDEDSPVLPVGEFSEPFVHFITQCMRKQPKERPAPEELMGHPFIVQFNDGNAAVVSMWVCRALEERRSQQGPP
Chain of UniProt P49760 (whole entry, looked up): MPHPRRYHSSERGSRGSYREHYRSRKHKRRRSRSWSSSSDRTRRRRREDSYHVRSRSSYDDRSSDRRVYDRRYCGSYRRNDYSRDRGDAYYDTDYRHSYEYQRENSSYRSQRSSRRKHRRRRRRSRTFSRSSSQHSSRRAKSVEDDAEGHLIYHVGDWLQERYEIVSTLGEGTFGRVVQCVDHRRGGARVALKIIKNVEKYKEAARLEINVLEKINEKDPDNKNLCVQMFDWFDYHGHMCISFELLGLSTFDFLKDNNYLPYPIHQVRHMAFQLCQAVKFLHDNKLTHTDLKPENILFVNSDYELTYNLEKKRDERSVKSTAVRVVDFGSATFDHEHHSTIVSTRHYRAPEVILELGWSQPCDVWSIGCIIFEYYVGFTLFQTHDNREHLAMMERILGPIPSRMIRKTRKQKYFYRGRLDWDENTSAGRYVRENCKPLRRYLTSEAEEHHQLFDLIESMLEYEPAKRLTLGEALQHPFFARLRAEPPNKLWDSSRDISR

Compound	tested on	test	system	setting	how to read	measurement	result
O=C1NC(=O)c2c1c1cc(F)c[n+]3c1c1c2c2cc(O)ccc2[n]1[Ru-4]312([N]=C=S)[S+]3CC[S+]1CC[S+]2CC3 (stereo not drawn)	Tyrosine-protein kinase SYK (SYK, Homo sapiens, UniProt P43405)	enzyme activity		100 nM, human enzyme, together with: 10 µM ATP	baseline: untreated	remaining activity	120%
COc1ccccc1-c1n[nH]c2nc(NC3CCN(C(=O)Cc4ccc(F)cc4F)CC3)ncc12		bead binding, competition bead pull-down, measured: LINJ.25.2450	Leishmania donovani axenic amastigote extract	10 µM	baseline: vehicle	relative abundance	0.96
CN(C)[C@H]1C[C@@]23CC[C@@]4(O2)C(=CC[C@]2(C)[C@@H](c5ccc6ccncc6c5)CC[C@H]24)C=C3[C@@H](O)[C@@H]1O	Dual specificity mitogen-activated protein kinase kinase 5 (MAP2K5, Homo sapiens, UniProt Q13163)	ATP probe labelling, inhibitor, KiNativ profiling		0.1 µM		inhibition	-2.4%
CC(C)[C@H]1NC(=O)[C@H](Cc2ccccc2)NC(=O)[C@@H](C(C)C)NC(=O)[C@@H](C)NC(=O)[C@H](CO)NC(=O)[C@@H](Cc2c(-c3ccc(-c4ccc5ccccc5c4)cc3)[nH]c3ccccc23)NC(=O)[C@@H](CO)NC1=O			female Sprague-Dawley rat, plasma	intraperitoneal, 20 mg/kg, single dose		Cmax	5.33 µg/mL
CC1(C)C(=O)N(c2ccc(C#N)c(C(F)(F)F)c2)C(=S)N1c1ccc(C(=O)O)c(F)c1			human, male, plasma	oral, 80 mg, soft capsule		Cmax	0.0651 ± 0.0169 µg/mL
CCCCCCCCCCCCCCCC(=O)N[C@@H](CCC(=O)NCCOCCOCCC(=O)NCCOCCOCCC(=O)NCCCC[C@H](NC(=O)[C@H](CC(=O)O)NC(=O)[C@H](CC(C)C)NC(=O)[C@H](Cc1ccc(O)cc1)NC(=O)[C@H](CCCCN)NC(=O)[C@H](CO)NC(=O)[C@H](Cc1ccc(O)cc1)NC(=O)[C@H](CC(=O)O)NC(=O)[C@H](CO)NC(=O)[C@@H](NC(=O)[C@H](Cc1ccccc1)NC(=O)[C@@H](NC(=O)CNC(=O)[C@H](CCC(N)=O)NC(=O)[C@@H](CO)NC(=O)[C@@H](N)Cc1c[nH]cn1)[C@@H](C)O)[C@@H](C)O)C(=O)N[C@@H](CCCNC(=N)N)C(=O)N[C@@H](CCCNC(=N)N)C(=O)N[C@@H](C)C(=O)N[C@@H](CCC(N)=O)C(=O)N[C@@H](CC(=O)O)C(=O)N[C@@H](Cc1ccccc1)C(=O)N[C@H](C(=O)N[C@@H](CCC(N)=O)C(=O)N[C@@H](Cc1c[nH]c2ccccc12)C(=O)N[C@@H](CC(C)C)C(=O)N[C@@H](CC(C)C)C(=O)N[C@@H](CC(N)=O)C(=O)N[C@H](C(=O)NCC(=O)NCC(=O)N1CCC[C@H]1C(=O)N[C@@H](CO)C(=O)N[C@@H](CO)C(=O)NCC(=O)N[C@@H](C)C(=O)N1CCC[C@H]1C(=O)N1CCC[C@H]1C(=O)N1CCC[C@H]1C(=O)N[C@@H](CO)C(N)=O)[C@@H](C)O)C(C)C)C(=O)O			rhesus monkey, female, plasma	subcutaneous, 60 µg/kg, day 1, toxicokinetics, mean		Cmax	0.117 µg/mL
NC1CCN(C(=O)Oc2ccc(C3CCCC4(C3)OOC3(O4)C4CC5CC(C4)CC3C5)cc2)CC1 (racemic)			male mouse, plasma	oral, 50 mg/kg, single dose		Cmax	1.19 µg/mL
CC1(C)C(=O)N(c2ccc(C#N)c(C(F)(F)F)c2)C(=S)N1c1ccc(C(N)=O)c(F)c1			human, male, plasma	oral, 160 mg, soft capsule		Cmax	0.432 ± 0.125 µg/mL
CCCCCCCCCCCCCC(=O)N[C@H](CCN)C(=O)N[C@@H]1C(=O)N[C@@H](CCN)C(=O)N[C@@H](CC(C)C)C(=O)N[C@@H](CCN)C(=O)N[C@H](Cc2ccccc2)C(=O)N[C@@H](CC(C)C)C(=O)N[C@@H](CCN)C(=O)N[C@H](CCN)C(=O)N[C@@H](C(C)C)C(=O)N[C@@H](CC(=O)O)C(=O)O[C@@H]1C			rat, plasma	subcutaneous, 10 mg/kg		Cmax	5.2 µg/mL
Cn1nc(NS(C)(=O)=O)c2c(Cl)ccc(-n3c([C@H](Cc4cc(F)cc(F)c4)NC(=O)Cn4nc(C(F)F)c5c4C(F)(F)[C@@H]4C[C@H]54)nc4nc(OCCC(F)(F)F)ccc4c3=O)c21			human, plasma	oral, 1875 mg single dose, powder in bottle, geometric mean		Cmax	0.558 µg/mL
O=C1NC2(CC2)COc2ncc(F)cc2[C@H]2COCCN2c2ccn3ncc1c3n2			Sprague-Dawley rat, male, plasma	oral, 20 mg/kg/day, end of recovery, 4-week repeated-dose toxicity		prothrombin time	9.1 ± 0.1 s
CC(C)[C@H]1NC(=O)C[C@H]2/C=C/CCSSC[C@@H](NC1=O)C(=O)N[C@H](Cc1cccc3ccccc13)C(=O)NCC(=O)O2	Dual specificity protein kinase CLK2 (CLK2, Homo sapiens, UniProt P49760)	enzyme activity, inhibitor		10 µM		inhibition	-10.6%
CC(C)N1CCCCC1C(=O)NC(Cc1ccc(-c2ccccc2)cc1)B(O)O (stereo not drawn)			rat, plasma	oral, 1 mg/kg		Cmax	0.666 µM
COc1nc(CC=C(C)CC=CC(C)=CC(C)C(OC2OC(CO)C(O)C(O)C2O)C(C)=CCO)c(C)c(O)c1OC (stereo not drawn)			male C57BL/6 mouse, plasma	intravenous, 2 mg/kg		Cmax	1.87 µg/mL
CC[C@H](C)[C@H](NC(=O)CNC(=O)[C@H](CCSC)NC(=O)[C@H](CCC(N)=O)NC(=O)[C@H](C)NC(=O)[C@H](CCC(N)=O)NC(=O)[C@@H](NC(=O)[C@H](CC(C)C)NC(=O)[C@H](C)NC(=O)[C@H](CO)NC(=O)[C@H](CCSC)NC(=O)[C@H](CCC(=O)O)NC(=O)[C@H](CC(C)C)NC(=O)[C@H](Cc1ccc(O)cc1)NC(=O)[C@H](CO)NC(=O)[C@H](CCC(=O)O)NC(=O)[C@H](CCC(N)=O)NC(=O)[C@H](CCCNC(=N)N)NC(=O)[C@H](CCCCN)NC(=O)[C@H](CC(=O)O)NC(=O)[C@H](CC(C)C)NC(=O)[C@H](CC(N)=O)NC(=O)[C@H](Cc1ccccc1)NC(=O)[C@H](CCC(=O)O)NC(=O)[C@H](CCCCN)NC(=O)[C@@H](NC(=O)[C@H](CC(C)C)NC(=O)[C@H](CCC(=O)O)NC(=O)[C@H](CCC(=O)O)NC(=O)[C@@H](NC(=O)[C@@H](NC(=O)[C@H](CCCNC(=N)N)NC(=O)[C@H](CCCCN)NC(=O)[C@H](C)NC(=O)[C@H](Cc1ccccc1)NC(=O)[C@H](CCC(=O)O)NC(=O)[C@H](CCC(=O)O)NC(=O)[C@H](CC(C)C)NC(=O)[C@@H](N)CO)C(C)C)C(C)C)C(C)C)[C@@H](C)CC)C(=O)N[C@@H](CO)C(=O)N[C@@H](CCC(=O)O)C(=O)N[C@@H](CCCNC(=N)N)C(=O)N[C@H](C(=O)N[C@H](C(=O)N[C@@H](CCC(=O)O)C(=O)N[C@H](C(=O)N[C@H](C(=O)N[C@@H](CC(C)C)C(=O)N[C@@H](CCCNC(=N)N)C(=O)N[C@@H](Cc1c[nH]cn1)C(=O)N[C@@H](C)C(=O)N[C@@H](C)C(=O)N[C@@H](CCC(N)=O)C(=O)N[C@H](C(=O)N[C@@H](CC(C)C)C(=O)N[C@@H](CCCCN)C(=O)O)[C@@H](C)O)C(C)C)[C@@H](C)CC)[C@@H](C)CC)[C@@H](C)CC			male mouse, plasma	intravenous, 1 mg/kg		Cmax	11.2 µg/mL
CC(C)(C)C(=O)OCOP(=O)(OCOC(=O)C(C)(C)C)C1CCCN(O)C1=O (stereo not drawn)	Hs-578T					TGI	8.27 µM
CN[C@H](CC(C)C)C(=O)N[C@H]1C(=O)N[C@@H](CC(N)=O)C(=O)N[C@H]2C(=O)N[C@H]3C(=O)N[C@H](C(=O)N[C@H](C(=O)O)c4cc(O)cc(O)c4-c4cc3ccc4O)[C@H](O)c3ccc(c(Cl)c3)Oc3cc2cc(c3O[C@@H]2O[C@H](CO)[C@@H](O)[C@H](O)[C@H]2O[C@H]2C[C@](C)(NCc3ccc(-c4ccc(Cl)cc4)cc3)[C@H](O)[C@H](C)O2)Oc2ccc(cc2Cl)[C@H]1O			mouse, plasma	intravenous, 10 mg/kg		Cmax	65 µg/mL
C/C(=N\OCCCN1CCCCC1)c1ccc(C(F)(F)F)cc1			mouse, plasma	oral, 75 mg/kg twice daily, day 1		Cmax	1.84 ± 0.924 µg/mL

A few entries again:
Compound	tested on	test	system	setting	how to read	measurement	result
CC(C)[C@H]1NC(=O)[C@H](Cc2ccccc2)NC(=O)[C@@H](C(C)C)NC(=O)[C@@H](C)NC(=O)[C@H](CO)NC(=O)[C@@H](Cc2c(-c3ccc(-c4ccc5ccccc5c4)cc3)[nH]c3ccccc23)NC(=O)[C@@H](CO)NC1=O			female Sprague-Dawley rat, plasma	intraperitoneal, 20 mg/kg, single dose		Cmax	5.33 µg/mL
CC1(C)C(=O)N(c2ccc(C#N)c(C(F)(F)F)c2)C(=S)N1c1ccc(C(=O)O)c(F)c1			human, male, plasma	oral, 80 mg, soft capsule		Cmax	0.0651 ± 0.0169 µg/mL
